Published values gathered from unrelated publications.
A part holds a random share of what one study measured. Changes are numbered by the printed parent chain.

Set 1 — technique: RNA Bind-n-Seq; molecule type: RNA; medium: in vitro; concentration: 1 µM; notes: whole 134-nt RNA, ends assumed; with: 150 mM KCl; reference: input library; direction: higher = stronger binding
Target: Ras GTPase-activating protein-binding protein 1, C-terminal RGG region (G3BP1, Homo sapiens, UniProt Q13283)
Chain of UniProt Q13283 (whole entry, looked up): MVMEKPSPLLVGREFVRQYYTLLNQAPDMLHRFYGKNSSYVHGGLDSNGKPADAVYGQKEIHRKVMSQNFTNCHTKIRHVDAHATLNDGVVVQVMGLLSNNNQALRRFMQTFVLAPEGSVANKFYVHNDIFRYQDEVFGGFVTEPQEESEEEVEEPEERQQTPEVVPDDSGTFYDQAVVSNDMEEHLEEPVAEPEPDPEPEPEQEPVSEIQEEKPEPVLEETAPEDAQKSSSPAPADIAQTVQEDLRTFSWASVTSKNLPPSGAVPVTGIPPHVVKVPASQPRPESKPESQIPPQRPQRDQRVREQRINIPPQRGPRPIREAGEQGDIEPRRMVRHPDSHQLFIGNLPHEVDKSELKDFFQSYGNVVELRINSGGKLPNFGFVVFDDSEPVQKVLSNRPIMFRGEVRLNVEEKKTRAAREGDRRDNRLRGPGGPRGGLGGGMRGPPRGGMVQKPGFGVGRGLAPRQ
Strand	log2 enrichment
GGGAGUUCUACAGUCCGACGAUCGCAGGAAGUAAAAACAAAUGGAAAUGCUUCGGAUAGUGGCAGGGGUGGGGGUUGCUAAGGAAAAAAUGGGAUGGGAGUGGGUAAAGAGUUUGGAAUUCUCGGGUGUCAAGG	2.16
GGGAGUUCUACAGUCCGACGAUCGUCCUGUGCUACACAUCGUAUGUACCGAAUCGGCCCCCGGGGCCCCCGGGCCCCCGGGGAAAGUAUUAUGUUACGCCGUUCGGAUCUGCAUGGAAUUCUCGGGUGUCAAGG	-1.89
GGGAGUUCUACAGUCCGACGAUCCACAGACAACACGCACCCACACAGACACAGAGGGAAGGGGUUGGGAUGGGGACAGGGUGCACAGCAGGGCAGGGUAGGACCCCAGCCCCUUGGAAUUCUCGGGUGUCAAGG	-1.23
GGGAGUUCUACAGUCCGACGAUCCACAGACAACACGCACCCACACAGACACAGAGGGAAGGGGUUGGGAUGGGGACAGGGUGCACAGCAGGGCGGGUUAGGACCCCAGCCCCUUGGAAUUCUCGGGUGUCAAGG	-1.35
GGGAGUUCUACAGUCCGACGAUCACCCUGCAGGUGGGCAUCUUUGGGAAGUGGGGCAAGGGGGGGAUAGGGAGGGGGGUAACACUUUGGGAACAGGUGGUCCCAGGUCGUUUCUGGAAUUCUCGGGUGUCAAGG	-1.05
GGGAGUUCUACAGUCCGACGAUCCUCAAGUCCUGUGCUACACAUCGUAUGUACCGAAUCGGGAAAGGGUGGGAGGGAAAGUAUUAUGUUACGCCGUUCGGAUCUGCACUUCCAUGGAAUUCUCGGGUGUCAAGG	1.83
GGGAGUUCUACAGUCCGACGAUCCCUGUGCUACACAUCGUAUGUACCGAAUCGGGCCCCCCCGGGGCCCCCCCGGCCCCCCCGGAAAGUAUUAUGUUACGCCGUUCGGAUCUGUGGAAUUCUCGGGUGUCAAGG	-1.37
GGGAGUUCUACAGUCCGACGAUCUGGGAGGUGGAUUUUGUUUUUUUUUUUAGCUCAUUUCCAGGGGUGGGAAUUUUUUUUUAAUAUGUGUCAUGAAUAAAGUUGUUUUUGAAAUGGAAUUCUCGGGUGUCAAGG	2.02

Set 2 — target: UBE2D2 UBC core domain (UniProt P62837); technique: yeast two-hybrid; medium: yeast; notes: mostly zero background; reference: not given; direction: higher = stronger interaction
Chain of UniProt P62837 (whole entry, looked up): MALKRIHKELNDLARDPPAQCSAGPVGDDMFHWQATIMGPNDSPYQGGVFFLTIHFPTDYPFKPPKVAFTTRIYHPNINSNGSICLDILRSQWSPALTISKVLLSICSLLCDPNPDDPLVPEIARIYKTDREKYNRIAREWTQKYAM
B1: RNF175 RING domain (UniProt Q8N4F7); chain LPTRSLSDNICAVCGQKIIVELDEEGLIENTYQLSCNHVFHEFCIRGWCIVGKKQTCPYCKEKVDLKRMIS
Sequence	lacZ reporter activity
ISNDSETLEECMVCSDMKRDTLFGPCGHIATCSLCSPRVKKCLICKEQVQSRTKIE (MIB1 RING domain (UniProt Q86YT6))	0
B1 (RNF175 RING domain)	0
KRQCSDVDDICSICQAEFQKPILLICQHIFCEECMTLWFNREKTCPLCRTVISDHINKW (RNFT1 RING domain (UniProt Q5M7Z0))	0

Set 3 — target: CCNA2, cyclin fold, Cln2 fusion (human); technique: yeast growth competition, sequencing; medium: yeast; notes: strong parent motif; reference: not given; direction: higher = stronger binding; parent: viral docking peptide; PGASRRLFGSSAD
Variant	normalised enrichment score
PGAARRLFGSSAD [S4A]	4.08
PGASARLFGSSAD [R5A]	0.226
PGASARAFGSSAD [R5A L7A]	0.297
PGASKRLLGSSAD [R5K F8L]	0.331
PGASRRLAGSSAD [F8A]	0.125
PGASRRLFASSAD [G9A]	4.02
AGASRRLFGSSAD [P1A]	3.04

Single results of other studies
Sequence	target	observed	molecule type	concentration	endpoint	result
FTIGNMFSL	HLA class I histocompatibility antigen, A alpha chain, allele A*80:01 (Homo sapiens, UniProt P04439)	peptide-MHC binding	peptide	concentration not given	binding	inactive

Excerpt of the above (set 1):
Strand	log2 enrichment
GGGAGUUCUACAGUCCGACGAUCCUCAAGUCCUGUGCUACACAUCGUAUGUACCGAAUCGGGAAAGGGUGGGAGGGAAAGUAUUAUGUUACGCCGUUCGGAUCUGCACUUCCAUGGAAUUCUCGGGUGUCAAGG	1.83
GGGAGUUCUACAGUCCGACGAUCUGGGAGGUGGAUUUUGUUUUUUUUUUUAGCUCAUUUCCAGGGGUGGGAAUUUUUUUUUAAUAUGUGUCAUGAAUAAAGUUGUUUUUGAAAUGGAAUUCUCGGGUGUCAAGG	2.02
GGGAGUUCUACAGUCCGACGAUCGCAGGAAGUAAAAACAAAUGGAAAUGCUUCGGAUAGUGGCAGGGGUGGGGGUUGCUAAGGAAAAAAUGGGAUGGGAGUGGGUAAAGAGUUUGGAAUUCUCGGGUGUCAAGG	2.16
